# Measurements collected from several papers.
# Several values in a cell are separate wells, animals, samples, runs or records.
# Cell line: SF-539
Compound,test,test system,conditions,how to read,endpoint,result
CN1CCN(c2ccc3[nH]c(-c4ccc5[nH]c(-c6ccc(C(F)(F)F)cc6)nc5c4)nc3c2)CC1,SRB,,"10 µM, 48 h",,growth percent,47.2%
Cc1n[nH]c2nc(-c3ccc(Cl)cc3)c3c(NC(=O)c4ccccc4)nnc-3n12,SRB,,"10 µM, NCI60 single-dose screen",reference: untreated,cell growth,102%
CCCCN1CCN(c2ccc3nc(-c4ccc5nc(-c6cc(OC)ccc6OC)[nH]c5c4)[nH]c3c2)CC1,SRB,,"10 µM, 48 h",,growth percent,92.8%
Cn1cncc1C1=CN(c2ncnc3[nH]cnc23)CCS1,,,CNS cancer,,GI50,12300 nM
C#C[C@@]1(O)[C@@H](CO)O[C@@H](n2cc(F)c3c(N)ncnc32)[C@@H]1O,SRB,,NCI-60 screen,,TGI,5290 nM
CSc1nc(-c2ccc(Cl)cc2)c2c(NC(=O)c3ccccc3)nnc-2[nH]1,SRB,,"10 µM, NCI60 single-dose screen",reference: untreated,cell growth,91.5%
CC(=O)O[C@H]1C(=O)[C@@]2(C)[C@H]([C@H](OC(=O)c3ccccc3)[C@]3(O)C[C@H](OC(=O)[C@H](O)[C@@H](NC(=O)c4ccccc4)c4ccccc4)C(C)=C1C3(C)C)[C@]1(OC(C)=O)CO[C@@H]1C[C@@H]2O,sulforhodamine B,CNS cancer,NCI60 screen,,TGI,60 nM
Cc1cc(C)n(-c2nc(-c3ccc(Cl)cc3)c3c(NC(=O)c4ccccc4)nnc-3[nH]2)n1,SRB,,"10 µM, NCI60 single-dose screen",reference: untreated,cell growth,87.7%
CCCCN1CCN(c2ccc3[nH]c(-c4ccc5[nH]c(-c6cc(OC)c(OC)c(OC)c6)nc5c4)nc3c2)CC1,SRB,,"10 µM, 48 h",,growth percent,61.1%
O=C(Nc1nnc2n3c(Cc4ccccc4)n[nH]c3nc(-c3ccc(Cl)cc3)c1-2)c1ccccc1,SRB,,"10 µM, NCI60 single-dose screen",reference: untreated,cell growth,96.8%
C#C[C@@]1(O)[C@@H](CO)O[C@@H](n2cc(I)c3c(N)ncnc32)[C@@H]1O,SRB,,NCI-60 screen,,TGI,2180 nM and 2980 nM
CCCCN1CCN(c2ccc3[nH]c(-c4ccc5[nH]c(-c6ccc(OCC)c(OCC)c6)nc5c4)nc3c2)CC1,SRB,,"10 µM, 48 h",,growth percent,-93.7%
Cc1cc(C)n(C(=S)[S][Au][PH](CCCCCC[PH]([Au][S]C(=S)n2nc(C)cc2C)(c2ccccc2)c2ccccc2)(c2ccccc2)c2ccccc2)n1,"cell growth, NCI-60 screen",,CNS cancer,,log10 TGI,-4.44
C#C[C@@]1(O)[C@@H](CO)O[C@@H](n2cc(Cl)c3c(N)ncnc32)[C@@H]1O,SRB,,NCI-60 screen,,TGI,1300 nM and 1610 nM
CCCN1CCN(c2ccc3nc(-c4ccc5nc(-c6cc(OC)ccc6OC)[nH]c5c4)[nH]c3c2)CC1,SRB,,"10 µM, 48 h",,growth percent,96.2%
O=C1NCCc2[nH]c(-c3ccncc3)cc21,MTS,,NCI60 panel,,IC50,3680 nM

# Repeated from above:
Compound,test,test system,conditions,how to read,endpoint,result
O=C1NCCc2[nH]c(-c3ccncc3)cc21,MTS,,NCI60 panel,,IC50,3680 nM
C#C[C@@]1(O)[C@@H](CO)O[C@@H](n2cc(I)c3c(N)ncnc32)[C@@H]1O,SRB,,NCI-60 screen,,TGI,2180 nM and 2980 nM
